Measured values of several laboratories.
Parts stem from different laboratories: compare values within a part only. Positions count from the first letter of the parent shown.

Block 1
Target: Centromere-binding protein 1, full length, N-terminal tag (CBF1, Saccharomyces cerevisiae, UniProt P17106, residues 1-351)
Chain of UniProt P17106 (whole entry, looked up): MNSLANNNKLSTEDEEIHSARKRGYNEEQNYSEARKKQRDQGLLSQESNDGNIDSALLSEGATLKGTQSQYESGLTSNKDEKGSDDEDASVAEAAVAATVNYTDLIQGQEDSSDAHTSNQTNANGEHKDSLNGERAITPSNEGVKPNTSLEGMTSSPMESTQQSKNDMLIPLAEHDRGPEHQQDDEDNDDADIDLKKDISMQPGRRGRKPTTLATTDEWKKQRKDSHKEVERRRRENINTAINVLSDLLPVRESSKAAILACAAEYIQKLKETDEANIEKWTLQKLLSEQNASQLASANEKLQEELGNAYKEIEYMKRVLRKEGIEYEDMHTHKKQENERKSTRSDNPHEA
Technique: protein-binding microarray
Form: double-stranded DNA, one strand shown
Sample: in vitro
Concentration: 0.8 µM
Setting: whole 60-bp probe, no competitor
Direction: higher = stronger binding
Constant ends, left off below: … GTCTTGATTCGCTTGACGCTGCTG
Strand	fluorescence intensity [a.u.]
CTATCCATACTCCGTGGCGTGCATGTGTTTTAGTTC	773
CTAGCGTGGGGTTCCCACGAGCGGCAGGAACCGTTC	512
CTATGAAAAAAGATGAACGTGTGAATGAAAAAATTC	643
CTACCGGCCTCGTTATTCGTGATGCCTACTTAATTC	507
GAAAGATAATGCAACTCCACCACCAGCGCTCTATAG	485
GAACCAGTGGCACACACGTGAACTACATCACTCTAG	1830
CTAGTGCTTTGTTGTTCACGTGCTTTTCACGTGTTC	10200

Block 2
Target: CCND1, cyclin fold, Cln2 fusion (human)
Technique: yeast growth competition, sequencing
Sample: yeast
Setting: weak parent motif
Reference: not given
Direction: higher = stronger binding
Starting sequence: MASTL docking peptide (human); PMIAKNLMCELDE; partner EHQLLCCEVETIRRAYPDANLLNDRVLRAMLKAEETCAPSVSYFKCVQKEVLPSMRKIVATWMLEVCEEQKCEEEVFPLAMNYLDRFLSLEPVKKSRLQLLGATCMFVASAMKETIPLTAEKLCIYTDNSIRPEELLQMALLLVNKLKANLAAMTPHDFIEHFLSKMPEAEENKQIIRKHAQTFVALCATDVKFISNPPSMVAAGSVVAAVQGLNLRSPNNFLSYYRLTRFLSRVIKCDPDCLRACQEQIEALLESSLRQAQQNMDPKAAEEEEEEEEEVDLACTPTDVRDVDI
Variant	normalised enrichment score
PQIAKNLMCELDE [M2Q]	0.386
PMIAKNWMCELDE [L7W]	0.237
PMIAKNLMCELTE [D12T]	0.204
PMIAKNFMCELDE [L7F]	-0.213
PMSAKNLMCELDE [I3S]	-0.161
PMIMKNLMCELDE [A4M]	0.0896
PMIAKNLMCEFDE [L11F]	-0.0697
PFIAKNLMCELDE [M2F]	0.318

Block 3
Target: RNA binding protein fox-1 homolog 2, RRM domain, GST-SBP tag (RBFOX2, Homo sapiens, UniProt O43251-10, residues 100-194)
Technique: RNA Bind-n-Seq
Form: RNA
Sample: in vitro
Concentration: 365 nM
Setting: natural RNA segment, single round, ends assumed
Reference: no-protein control
Direction: higher = stronger binding
Constant ends, left off below: GGGAGUUCUACAGUCCGACGAUC … UGGAAUUCUCGGGUGCCAA
Target sequence (chain): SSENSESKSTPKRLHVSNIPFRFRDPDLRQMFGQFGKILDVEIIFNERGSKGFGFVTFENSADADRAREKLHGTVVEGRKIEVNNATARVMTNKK
Strand	RBNS enrichment (R)
UAAUUGAAUGCAUACCUAAUUGUAAAAUUUUUUUAUUUACAACAUUGGAAAUUCAGAAGUUAAUGUUUUUUUGUAAGCACAAAAGAAGUAUUAUAGAAAUUUAUCCUAGC	0.54
CCACUGGCCUGAAUAAUUAGCCUUUUCCAGAUCUUCAGUAUCUUCCACAACUACUGCCAUACCCUGUGUUGUAUCAUUUGACCAGGAGGGAAACCUUGAAUUGGGGUGUG	0.426
AAGCCAGGUAGGUAGUCUGAGUCAGGAUUGGAUCAACAGCCUCCUCUCUUGGGGACUCUCAAGAGCCUGUGUUCAUCUAGAAGUAGUAGUUUGAUUCUGGUUUCCCUCCU	0.466
GAUACUUUUAUACUUGUUUCUGCUUUUGCUGCUCUUGAUCCCACCUUUGCUCCUGACAACCCUCAUUAAUAAAGACCAGUGAAGACCAAUGCUUUGCCACCACUCUCUUG	0.776
GAGACCCUGGCUGCAGCGGAAUUUUUUGUUUUUAGCAGGCUGUCCUGCCUGCUAUGAGGGGUGGAUACUGUUCCAGAUCUUUGGGGGAAUUGUUACCUCCUGUUGUUUUG	0.465
GGAUAAAGGGCAGAUGUCAGCAAUACUAAGGGCUUCCUCAUGGGAGGGCAUGAGGCUCCACUCAUUGUCUUGUGACUUCCAUCCCUGCUGAAUGGGGCUGCAAGGCCAAG	0.531
AGGCCUCCAAGGCAGAAGCUAUUGGGAGCCUCCCUGAUGCUCCUCAGCCUCUUAGAGAGGAGCCCUUGUAUGGCCAGGUCACACGGCAUCCCAGUGGCCGGGGAGUCACC	0.286
CUUAACCCGUUUCUCUGGAUUUUAUGCUUCUGUGGCAUGUGGACCAUGAACCAUGUCCAAAGAACCAGGGGUGGGAAACACUCUCCCAGAGGGCUCCCUCCUAUAACUCC	0.616
GAUUGGAUUUUUGUAUAAAAAGAUAAUGCUGUCAAACGGGAACUGACCUUUAUUGAAUCUGAAAUGAUACAUAGCUGUGUGUGUAUAUAUAUUUUUUAAAAAUAGGUUCA	0.657

Further values, each from its own experiment
Substance	target	assay	system	conditions	scale	quantity	result
PhoQ, residues 284 288 289 292 302 303 SLANIV	PhoP, residues 12 14 15 18 19 LQHIR (Escherichia coli, UniProt P23836)	Sort-seq, item: YFP reporter	E. coli	PhoQ-PhoP variant library, with: 10 µM Mg2+	reference: high Mg2+ state, higher = stronger signaling	fold induction	16.1

Some of these lines once more (block 1):
Strand	fluorescence intensity [a.u.]
CTAGCGTGGGGTTCCCACGAGCGGCAGGAACCGTTC	512
CTATGAAAAAAGATGAACGTGTGAATGAAAAAATTC	643
CTACCGGCCTCGTTATTCGTGATGCCTACTTAATTC	507
GAAAGATAATGCAACTCCACCACCAGCGCTCTATAG	485
